Measurements of several laboratories.
Each line is one published result; not all experiments were run side by side. Numbers after ± are the reported error.
KDM1A: Lysine-specific histone demethylase 1A (KDM1A, Homo sapiens, UniProt O60341)
Rhomboid protease AarA: Rhomboid protease AarA (Providencia stuartii, UniProt P46116)
UniProt P46116, sequence (whole entry, looked up): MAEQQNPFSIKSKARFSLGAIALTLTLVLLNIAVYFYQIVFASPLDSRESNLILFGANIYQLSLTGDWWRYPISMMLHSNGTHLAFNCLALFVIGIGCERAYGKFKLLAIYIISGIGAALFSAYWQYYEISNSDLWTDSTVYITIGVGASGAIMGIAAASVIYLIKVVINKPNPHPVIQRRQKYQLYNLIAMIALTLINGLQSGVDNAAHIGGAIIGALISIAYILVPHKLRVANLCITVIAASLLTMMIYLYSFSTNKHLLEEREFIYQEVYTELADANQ
UniProt Q96QT4, sequence (whole entry, looked up): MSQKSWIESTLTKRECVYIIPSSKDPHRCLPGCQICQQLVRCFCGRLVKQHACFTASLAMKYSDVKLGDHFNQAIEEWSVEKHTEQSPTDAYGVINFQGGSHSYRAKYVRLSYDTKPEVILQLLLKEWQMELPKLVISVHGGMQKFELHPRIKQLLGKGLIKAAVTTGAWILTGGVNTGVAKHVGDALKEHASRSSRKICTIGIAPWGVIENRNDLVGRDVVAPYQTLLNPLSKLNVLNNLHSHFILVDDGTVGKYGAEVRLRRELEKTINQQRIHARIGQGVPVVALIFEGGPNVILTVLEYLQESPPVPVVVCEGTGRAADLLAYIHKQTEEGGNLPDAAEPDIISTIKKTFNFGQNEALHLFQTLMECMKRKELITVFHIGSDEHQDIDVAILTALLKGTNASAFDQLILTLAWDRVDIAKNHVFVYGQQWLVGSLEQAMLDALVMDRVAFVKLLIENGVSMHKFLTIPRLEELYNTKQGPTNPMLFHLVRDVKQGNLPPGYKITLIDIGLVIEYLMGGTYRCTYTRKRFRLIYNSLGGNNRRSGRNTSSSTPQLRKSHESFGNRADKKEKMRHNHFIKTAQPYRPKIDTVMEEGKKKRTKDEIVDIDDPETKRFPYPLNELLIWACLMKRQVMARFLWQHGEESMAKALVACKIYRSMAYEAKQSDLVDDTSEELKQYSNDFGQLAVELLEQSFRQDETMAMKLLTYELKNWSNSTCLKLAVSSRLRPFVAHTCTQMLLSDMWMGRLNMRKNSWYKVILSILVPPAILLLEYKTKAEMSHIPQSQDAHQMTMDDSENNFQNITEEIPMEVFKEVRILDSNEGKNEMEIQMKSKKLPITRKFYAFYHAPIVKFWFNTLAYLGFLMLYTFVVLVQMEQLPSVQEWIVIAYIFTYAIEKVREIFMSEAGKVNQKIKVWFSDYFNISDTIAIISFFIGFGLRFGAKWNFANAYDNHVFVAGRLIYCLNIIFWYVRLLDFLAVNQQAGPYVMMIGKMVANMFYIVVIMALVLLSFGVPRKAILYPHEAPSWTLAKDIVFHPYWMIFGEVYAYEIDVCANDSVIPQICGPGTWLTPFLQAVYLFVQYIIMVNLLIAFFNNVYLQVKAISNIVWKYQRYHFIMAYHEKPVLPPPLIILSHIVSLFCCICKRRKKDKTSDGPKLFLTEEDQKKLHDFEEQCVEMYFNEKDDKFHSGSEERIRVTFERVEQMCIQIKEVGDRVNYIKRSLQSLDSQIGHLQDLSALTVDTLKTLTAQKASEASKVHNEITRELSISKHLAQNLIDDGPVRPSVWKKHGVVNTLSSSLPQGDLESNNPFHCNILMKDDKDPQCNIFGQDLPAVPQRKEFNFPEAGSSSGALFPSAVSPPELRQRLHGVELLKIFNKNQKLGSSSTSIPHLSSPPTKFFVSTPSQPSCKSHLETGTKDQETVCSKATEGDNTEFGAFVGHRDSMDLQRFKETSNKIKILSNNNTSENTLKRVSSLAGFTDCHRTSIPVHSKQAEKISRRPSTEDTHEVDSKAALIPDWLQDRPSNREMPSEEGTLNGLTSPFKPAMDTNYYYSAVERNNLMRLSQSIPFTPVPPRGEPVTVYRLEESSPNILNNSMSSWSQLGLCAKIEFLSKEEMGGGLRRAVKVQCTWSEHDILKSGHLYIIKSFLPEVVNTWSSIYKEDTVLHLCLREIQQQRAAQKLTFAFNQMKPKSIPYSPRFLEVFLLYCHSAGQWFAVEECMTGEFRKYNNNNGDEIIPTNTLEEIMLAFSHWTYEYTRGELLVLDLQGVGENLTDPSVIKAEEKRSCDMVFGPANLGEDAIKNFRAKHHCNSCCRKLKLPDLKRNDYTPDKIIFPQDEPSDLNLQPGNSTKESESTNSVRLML
UniProt P07711, sequence (whole entry, looked up): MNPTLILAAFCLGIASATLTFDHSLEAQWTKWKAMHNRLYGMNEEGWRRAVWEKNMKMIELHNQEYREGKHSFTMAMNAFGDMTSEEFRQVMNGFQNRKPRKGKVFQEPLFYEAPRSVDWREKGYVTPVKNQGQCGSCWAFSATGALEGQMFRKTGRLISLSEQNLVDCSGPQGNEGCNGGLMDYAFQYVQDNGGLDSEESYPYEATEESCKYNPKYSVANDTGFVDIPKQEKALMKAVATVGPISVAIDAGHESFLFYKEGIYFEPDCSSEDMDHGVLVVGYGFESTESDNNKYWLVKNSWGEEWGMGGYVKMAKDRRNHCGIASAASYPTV
UniProt O75417, sequence (whole entry, looked up): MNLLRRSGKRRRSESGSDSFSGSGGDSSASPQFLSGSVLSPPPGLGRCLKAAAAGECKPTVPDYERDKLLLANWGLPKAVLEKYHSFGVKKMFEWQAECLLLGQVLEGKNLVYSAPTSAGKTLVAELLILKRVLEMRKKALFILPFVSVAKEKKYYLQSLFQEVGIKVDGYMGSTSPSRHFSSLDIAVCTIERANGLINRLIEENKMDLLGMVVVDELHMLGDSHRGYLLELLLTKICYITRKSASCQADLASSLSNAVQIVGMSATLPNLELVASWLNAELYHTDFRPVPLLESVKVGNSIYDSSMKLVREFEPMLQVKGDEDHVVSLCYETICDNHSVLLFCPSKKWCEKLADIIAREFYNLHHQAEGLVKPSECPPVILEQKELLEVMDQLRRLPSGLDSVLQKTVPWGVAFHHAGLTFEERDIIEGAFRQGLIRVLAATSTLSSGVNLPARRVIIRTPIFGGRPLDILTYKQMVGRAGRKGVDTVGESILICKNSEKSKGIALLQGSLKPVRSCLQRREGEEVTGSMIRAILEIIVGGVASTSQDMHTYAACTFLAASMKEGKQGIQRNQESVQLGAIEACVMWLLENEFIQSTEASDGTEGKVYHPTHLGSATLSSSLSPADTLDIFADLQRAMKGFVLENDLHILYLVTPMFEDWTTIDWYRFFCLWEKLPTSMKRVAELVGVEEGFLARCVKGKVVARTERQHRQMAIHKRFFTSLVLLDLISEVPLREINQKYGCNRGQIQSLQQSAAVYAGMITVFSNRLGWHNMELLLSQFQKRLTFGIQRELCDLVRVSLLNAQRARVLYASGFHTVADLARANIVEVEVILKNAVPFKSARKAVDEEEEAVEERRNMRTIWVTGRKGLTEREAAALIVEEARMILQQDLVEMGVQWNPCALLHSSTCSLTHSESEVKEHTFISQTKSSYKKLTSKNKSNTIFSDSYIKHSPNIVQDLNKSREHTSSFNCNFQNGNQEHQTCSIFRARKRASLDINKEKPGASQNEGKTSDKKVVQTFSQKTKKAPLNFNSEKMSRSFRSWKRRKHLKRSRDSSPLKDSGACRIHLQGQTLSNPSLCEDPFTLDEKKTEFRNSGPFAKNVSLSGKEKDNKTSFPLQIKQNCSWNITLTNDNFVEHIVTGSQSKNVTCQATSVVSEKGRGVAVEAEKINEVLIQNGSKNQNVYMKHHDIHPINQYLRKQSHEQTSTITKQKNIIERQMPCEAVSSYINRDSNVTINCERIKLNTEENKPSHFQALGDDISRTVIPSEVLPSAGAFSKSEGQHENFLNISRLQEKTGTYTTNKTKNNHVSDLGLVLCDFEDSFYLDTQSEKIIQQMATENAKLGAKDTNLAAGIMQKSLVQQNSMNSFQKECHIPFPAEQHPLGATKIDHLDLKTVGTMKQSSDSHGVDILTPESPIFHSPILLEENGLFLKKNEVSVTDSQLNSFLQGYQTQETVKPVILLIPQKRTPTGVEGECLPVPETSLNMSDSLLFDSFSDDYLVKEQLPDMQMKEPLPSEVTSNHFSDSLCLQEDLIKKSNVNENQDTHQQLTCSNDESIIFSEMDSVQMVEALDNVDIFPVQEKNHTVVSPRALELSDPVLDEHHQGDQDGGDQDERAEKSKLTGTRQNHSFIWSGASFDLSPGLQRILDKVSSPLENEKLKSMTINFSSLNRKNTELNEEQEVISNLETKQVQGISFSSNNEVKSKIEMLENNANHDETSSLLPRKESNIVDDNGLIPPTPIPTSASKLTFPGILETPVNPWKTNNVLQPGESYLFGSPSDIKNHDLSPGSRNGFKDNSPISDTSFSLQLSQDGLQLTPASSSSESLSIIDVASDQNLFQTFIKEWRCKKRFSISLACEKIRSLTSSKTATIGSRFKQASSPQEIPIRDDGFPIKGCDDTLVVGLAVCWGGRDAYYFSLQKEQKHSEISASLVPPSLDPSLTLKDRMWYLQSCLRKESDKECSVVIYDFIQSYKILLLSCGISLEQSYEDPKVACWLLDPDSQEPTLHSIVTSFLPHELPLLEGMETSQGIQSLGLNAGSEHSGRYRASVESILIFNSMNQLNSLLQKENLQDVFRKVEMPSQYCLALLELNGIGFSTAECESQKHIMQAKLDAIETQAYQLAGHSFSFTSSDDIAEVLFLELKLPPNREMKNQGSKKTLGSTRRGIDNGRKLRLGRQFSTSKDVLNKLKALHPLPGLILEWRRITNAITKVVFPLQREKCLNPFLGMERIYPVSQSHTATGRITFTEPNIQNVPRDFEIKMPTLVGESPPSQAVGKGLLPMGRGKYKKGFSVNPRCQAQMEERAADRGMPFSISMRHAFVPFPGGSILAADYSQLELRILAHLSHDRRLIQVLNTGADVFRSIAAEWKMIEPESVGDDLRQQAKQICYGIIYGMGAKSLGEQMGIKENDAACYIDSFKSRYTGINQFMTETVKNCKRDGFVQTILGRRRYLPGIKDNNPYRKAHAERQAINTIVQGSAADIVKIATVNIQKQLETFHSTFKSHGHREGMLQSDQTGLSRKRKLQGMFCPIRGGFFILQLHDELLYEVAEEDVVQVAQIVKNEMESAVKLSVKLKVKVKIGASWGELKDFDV

The remaining activity of O=C(Nc1nncs1)c1cccc([C@@H]2C[C@H]2NC2CCC2)c1 is reported as 72.3% (KDM1A; demethylase activity, inhibitor, Amplex Red; 0.07407 µM, with: H3K4me2 peptide; relative to: vehicle).
For CCC1(O)CCCN(C(=O)c2cccc(C#N)c2)C1 (stereo not shown), the remaining activity was 92.4 ± 3.3% (ung (Escherichia coli, UniProt P12295); enzyme activity, inhibitor; concentration not given, counter-screen).
COC(=O)[C@]1(C(C)C)C=C(C(=O)Nc2cccc(C(=O)Nc3ccc(Nc4nccc(-c5cccnc5)n4)c(C)c3)c2)C(=O)CC1 has a remaining activity of 0.0759 (MAPK8 (Homo sapiens, UniProt P45983); kinase activity, inhibitor; 133.3 µM, unit not given, with: 10 mM glutathione; relative to: no inhibitor).
The remaining activity of CC(C)(C)OC(=O)NC(Cc1cccc(Cl)c1)C(=O)NCC=CS(=O)(=O)c1ccccc1 (stereo not shown) is reported as 1% (Procathepsin L (CTSL, Homo sapiens, UniProt P07711); inhibitor; 5 µM, 60 min, with: Z-Phe-Arg-pNA; relative to: uninhibited control).
CN(C)C(=O)c1cccc([C@@H]2C[C@H]2NC2CCC2)c1 has a remaining activity of 92.9% (KDM1A; demethylase activity, inhibitor; 0.2058 µM, with: H3K4me2 peptide).
CC(C)[C@@H]1NC(=O)[C@H](Cc2ccccc2)NC(=O)CSC[C@@H](C(N)=O)NC(=O)[C@H](CCC(=O)O)NC(=O)[C@H](CO)NC(=O)[C@H](Cc2c[nH]c3cccc(Cl)c23)NC(=O)[C@H](C2CCCCC2)NC(=O)[C@H](C(C)C)NC(=O)[C@H](Cc2ccc(O)cc2)NC(=O)[C@H](CC(=O)O)NC(=O)[C@H](Cc2c[nH]c3ccccc23)NC(=O)[C@H](Cc2ccc(N)nc2)NC(=O)[C@H](Cc2c[nH]c3ccc(Cl)cc23)NC(=O)[C@H](CCC(=O)O)NC1=O gave a remaining activity of 22.9% (Interleukin-1 receptor-like 2 (IL1RL2, Homo sapiens, UniProt Q9HB29); reporter gene (SEAP), inhibitor, HEK-Blue IL-36R reporter; HEK-Blue IL-36R cells; 3.7 µM, 6 h, with: IL-36γ 1 ng/mL).
O=C1CC(c2ccccc2)N1S(=O)(=O)c1ccc(-c2ccc(Cl)cc2)cc1 (stereo not shown) has a remaining activity of 95% (Rhomboid protease AarA; enzyme activity, inhibitor; 100 µM).
With COc1ccccc1-c1ccncc1C(=O)Nc1nnc(OCc2ccc(Cl)cc2)s1 the remaining activity was 38% (DNA polymerase theta, helicase domain (POLQ, Homo sapiens, UniProt O75417); ATPase activity, ADP-Glo; 0.12 µM, with: ATP 100 µM).
With O=C(Nc1cccc([C@@H]2C[C@H]2NC2CCC2)c1)c1ccccc1 the remaining activity was 97.8% (KDM1A; demethylase activity, inhibitor; 0.06859 µM, with: H3K4me2 peptide).
For Cc1ccc(S(=O)(=O)N2C(=O)C[C@H]2C(=O)OCc2ccccc2)cc1, the remaining activity was 84% (Rhomboid protease AarA; enzyme activity, inhibitor; 100 µM).
The remaining activity of CNC(=O)C[C@H](Cc1ccc(C#N)cc1)NC(=O)c1cc(-c2ccc(CN[C@H](C)c3ccc(C)cc3)o2)ccc1Cl is reported as 111% (TRPM7 (Homo sapiens, UniProt Q96QT4); enzyme activity, KinaseProfiler panel; 1 µM).
With C[C@](C(=O)NC1CCOCC1)(c1cncnc1)N(C(=O)[C@H](F)Cl)c1ccc(OC(F)(F)Cl)cc1 the remaining activity was 102% (MMP12 (Homo sapiens, UniProt P39900); enzyme activity, inhibitor; 10 µM).
For COC(=O)c1cccc([C@@H]2C[C@H]2NC2CCC2)c1, the remaining activity was 93.2% (KDM1A; demethylase activity, inhibitor; 0.06859 µM, with: H3K4me2 peptide).

Excerpt of the above:
The remaining activity of CC(C)(C)OC(=O)NC(Cc1cccc(Cl)c1)C(=O)NCC=CS(=O)(=O)c1ccccc1 (stereo not shown) is reported as 1% (Procathepsin L (CTSL, Homo sapiens, UniProt P07711); inhibitor; 5 µM, 60 min, with: Z-Phe-Arg-pNA; relative to: uninhibited control).
With COc1ccccc1-c1ccncc1C(=O)Nc1nnc(OCc2ccc(Cl)cc2)s1 the remaining activity was 38% (DNA polymerase theta, helicase domain (POLQ, Homo sapiens, UniProt O75417); ATPase activity, ADP-Glo; 0.12 µM, with: ATP 100 µM).
